Experimental data gathered from unrelated publications.
Protocols differ between the studies behind these lines. Values joined by “and” are separate records of one study, mostly repeats; a detail may differ.
Organism: Chikungunya virus

| SMILES | assay | system | conditions | quantity | result |
| --- | --- | --- | --- | --- | --- |
| CCc1cc(=O)n2c(=O)/c(=C/c3ccc(OC)cc3)sc2n1 | virus-induced cell death, MTS/PMS | BGM, Indian Ocean 899 | 20 µg/mL | inhibition | 4.3% |
| Cc1cc(C(NC(=O)C2CC2c2ccc(C)c(C)c2)C(N)=O)cc(C(F)(F)F)c1 (mixture of isomers) | viral replication | BHK-21 | 16 h | EC50 | 95.9 µM |
| CCCCCCCCCCCCCCCC(=O)N[C@@H](CSCC(COC(=O)CCCCCCCCCCCCCCC)OC(=O)CCCCCCCCCCCCCCC)C(=O)N[C@@H](CO)C(=O)N[C@@H](CCCCN)C(=O)N[C@@H](CCCCN)C(=O)N[C@@H](CCCCN)C(=O)N[C@@H](CCCCN)C(=O)O (stereo partly drawn) | viral infection | – | concentration not given | infectivity | 172% and 170% and 165% and 173% |
| Nc1nc(Nc2ccc(Cl)cc2)nn1S(=O)(=O)c1ccc2ccccc2c1 | viral replication | Vero 76, S27 | – | EC50 | > 7.3 µM |
| O=c1cc(-c2ccccc2)oc2c(Br)c(O)c(O)c(O)c12 | viral replication | Vero | 10 µM, time after infection | latest time of addition retaining inhibition | < 12 h |
| O=C(N1CCC2(CC1)CC(CN1CCCCS1(=O)=O)CCO2)C1(c2ccccc2)CCCC1 (racemic) | viral replication | – | – | EC50 | 0.13 µM |
| COc1ccc(CNC(=O)C(NC(=O)C2CC2c2cc(C)cc(C)c2)c2ccc(C)c(C)c2)c(OC)c1 (mixture of isomers) | viral replication | BHK-21 | 16 h | EC50 | > 100 µM |
| CCc1cc(=O)n2c(=O)/c(=C/c3ccc(OC(C)=O)c(OC)c3)sc2n1 | virus-induced cell death, MTS/PMS | BGM, Indian Ocean 899 | 20 µg/mL | inhibition | 5.5% |
| CN1CCN(C(=O)N[C@@H](Cc2ccccc2)C(=O)N[C@H](/C=C/S(=O)(=O)c2ccccc2)CCc2ccccc2)CC1 | pseudovirus entry | HEK-293T | – | IC50 | > 0.1 µM |

Repeated from above:
| SMILES | assay | system | conditions | quantity | result |
| --- | --- | --- | --- | --- | --- |
| CCCCCCCCCCCCCCCC(=O)N[C@@H](CSCC(COC(=O)CCCCCCCCCCCCCCC)OC(=O)CCCCCCCCCCCCCCC)C(=O)N[C@@H](CO)C(=O)N[C@@H](CCCCN)C(=O)N[C@@H](CCCCN)C(=O)N[C@@H](CCCCN)C(=O)N[C@@H](CCCCN)C(=O)O (stereo partly drawn) | viral infection | – | concentration not given | infectivity | 172% and 170% and 165% and 173% |
